Measurements from different studies.
Several values in a cell are separate wells, animals, samples, runs or records. ± marks the error that the study gave.

| Structure (SMILES) | assay | system | conditions | measurement | value |
| --- | --- | --- | --- | --- | --- |
| COc1ccc2nc3cc(Cl)ccc3c(Nc3cc(CN4CCCC4)c(O)c(CN4CCCC4)c3)c2n1 | – | mouse, blood | intraperitoneal, 28 mg/kg | blood pH | 7.58 |
| CC(=O)c1c(C)c2cnc(Nc3ccc(C4CCN(CCS(C)(=O)=O)CC4)cn3)nc2n(C2CCCC2)c1=O | – | beagle dog male and female | oral gavage twice daily, 4 weeks | lethal dose | 20 mg/kg/day |
| CC(C)CC(=O)OC[C@H]1O[C@@](C#N)(c2ccc3c(N)ncnn23)[C@H](O)[C@@H]1O | – | dog whole blood | 5 µM, 60 min | remaining compound | 24.5 ± 0.849% |
| COc1cccc(Oc2ccccc2NC(=O)CNC(=O)c2cccc3ccccc23)c1 | – | esterase-deficient SCID mice, male | oral, 15 mg/kg/day, 14 days, toxicity study | serum cholesterol | 94 mg/dL and 88 mg/dL and 97 mg/dL |
| CN1CCN(c2cccc3c2CCN(C(=O)/C=C/c2c(-n4cnnn4)ccc(Cl)c2F)[C@@H]3C(=O)Nc2ccc(C(=O)O)cc2)C(=O)C1 | – | healthy human subjects | intravenous infusion, 1 mg/h, 5 days | deaths | 0% |
| NCCCC[C@@H]1NC(=O)[C@@H](Cc2c[nH]c3ccccc23)NC(=O)[C@H](c2ccccc2)NC(=O)[C@@H]2C[C@@H](OC(=O)NCCN)CN2C(=O)[C@H](Cc2ccccc2)NC(=O)[C@H](Cc2ccc(OCc3ccccc3)cc2)NC1=O | – | healthy volunteers | subcutaneous, 1950 µg twice daily, day 5, 12.00 h | QTcI change from baseline | 3.1 ms |
| CC(C)N(CCc1c[nH]c2cccc(OC(=O)CCCC(=O)O)c12)C(C)C.Cl | – | male beagle dog, plasma | intravenous, 1 mg/kg | AUC(0-t) | 562 ng·h/mL |
| CO[C@H]1C[C@@H]2CC[C@@H](C)[C@@](O)(O2)C(=O)C(=O)N2CCCC[C@H]2C(=O)O[C@H]([C@H](C)C[C@@H]2CC[C@@H](OC(=O)NCCOCCOCCOCCOCCOCCOCCOCCOCCC(=O)N3CCc4cc(Cn5nc(-c6ccc7oc(N)nc7c6)c6c(N)ncnc65)ccc4C3)[C@H](OC)C2)C[C@@H](O)[C@H](C)/C=C(\C)[C@@H](O)[C@@H](OC)C(=O)[C@H](C)C[C@H](C)/C=C/C=C/C=C/1C | phase 1 dose escalation, refers to: mucositis | advanced solid tumour patients | intravenous, 6 mg weekly, grade ≥3 | dose-reducing adverse events | 0% |
| O=C(c1ccc(F)c(F)c1Nc1ccc(I)cc1F)N1CC(O)([C@@H]2CCCCN2)C1 | – | patients aged 6 to sample A years | oral, dose not given | serious adverse events | 29% |
| CCc1ccc(CC/C=C/c2ccc3c(c2)C(=O)CC3)cc1 | – | Sprague-Dawley rat, male | oral, 120 mg/kg/day, 14 days | GGT serum activity | 1.33 U/L |
| C=CC(=O)Nc1cc(Nc2nccc(Nc3cc(Cl)c(F)cc3C(C)(C)O)n2)c(OC)cc1N1CC[C@@H](N(C)C)C1 | treatment-emergent adverse events | human | oral, 300 mg, phase I clinical trial | incidence of blood creatinine increased | 17.6% |
| CCN1[C@@H](C(=O)NC23CCC(C(=O)O)(CC2)CC3)[C@H](c2cccc(Cl)c2F)[C@]2(C(=O)Nc3cc(Cl)ccc32)C12CCCCC2 | – | patients with advanced solid tumours | oral, 100 mg | ALT elevation incidence | 0% |
| COc1ncccc1-c1cnn2ccc(N3CCN(C(=O)OC(C)C)CC3)nc12 | – | mouse, formalin test, plasma | oral, 10 mg/kg, 60 min | drug concentration | 4.1 µM |
